Measurements collected from several papers.
Numbered parts are unrelated; each lists some results of a single study. Substitutions count along the parent as printed.

Block 1 — technique: protein binding microarray; form: double-stranded DNA, one strand shown; matrix: in vitro; tested at: not given; reference: not given; reading: higher = stronger binding
Target: Histone acetyltransferase KAT6A, winged helix 1, GST fusion (KAT6A, Homo sapiens, UniProt Q92794, residues 1-85)
Setting: 8-mer, flanks averaged, mean of 2 arrays, mostly near background
Target sequence (chain): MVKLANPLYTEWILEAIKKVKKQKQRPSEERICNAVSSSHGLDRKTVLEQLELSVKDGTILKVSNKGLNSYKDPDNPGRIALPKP
Strand	E-score
ATACCGCA	0.3
AGGTCGAA	-0.00927
ATAGACCG	0.0258
TCACCTCA	-0.157
ACCCCTCC	-0.23
GTTCCTAA	-0.131
GACACTAA	-0.0413
CCGTACTA	0.303
GTAAATGA	-0.141
CCCGGAGA	0.148
AGCTTTTC	-0.0607
GCAATACC	0.175
CGAGCGCC	0.311
AGAGGATA	-0.327
ATTCGTCG	-0.0986
AAGTCATA	-0.237
GGAGGGCC	-0.0209
CATCGCGG	0.342
TGCTCGAA	-0.099
AATCCCGC	0.349
CGAATGGA	-0.22
AGCACCCC	-0.00556
AACCAGAA	-0.123

Block 2 — technique: protein-binding microarray; form: double-stranded DNA, one strand shown; matrix: in vitro; tested at: 2200 nM top; setting: 60-bp whole probe; together with: salmon DNA 0.4 mg/ml; reference: random background probes; reading: higher = stronger binding; shared flanks, not repeated: GCCTAGCAC … GTCTTGATTCGCTTGACGCTGCTG
Target: Interferon regulatory factor 7, full length, phosphomimetic (IRF7, Homo sapiens, UniProt Q92985, residues 1-503, S471D/S472D/S475D/S476D/S477D/S483D/S484D/S487D)
Target sequence (chain): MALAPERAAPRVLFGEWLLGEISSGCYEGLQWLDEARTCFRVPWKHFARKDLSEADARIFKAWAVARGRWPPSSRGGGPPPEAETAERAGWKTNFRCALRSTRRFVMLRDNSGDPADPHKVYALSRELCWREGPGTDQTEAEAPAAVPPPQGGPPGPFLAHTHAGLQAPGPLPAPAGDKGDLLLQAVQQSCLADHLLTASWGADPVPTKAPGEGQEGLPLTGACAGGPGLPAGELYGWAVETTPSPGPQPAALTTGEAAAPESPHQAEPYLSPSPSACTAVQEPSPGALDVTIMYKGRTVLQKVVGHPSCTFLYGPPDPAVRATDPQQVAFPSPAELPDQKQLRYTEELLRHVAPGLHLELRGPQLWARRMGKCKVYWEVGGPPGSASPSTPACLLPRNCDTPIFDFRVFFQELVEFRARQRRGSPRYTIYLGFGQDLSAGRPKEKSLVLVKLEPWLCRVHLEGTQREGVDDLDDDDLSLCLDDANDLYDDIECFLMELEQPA
Strand	fitted relative affinity
TTAGACTTCGGGTATCGATTAGTGCTA	0.0697 z-score
TCTACTGTCTGTTTCCTCTTGTGCTAG	2.78 z-score
TCAGATATCGGGTATCGATTAGTGCTA	0.251 z-score
GACGGTTTACTACTGCTGACGTGCTAG	1.14 z-score
TTAGATATCAGTATCGCTTAGTGCTAG	0.268 z-score
GACGATATCAGACTGGAGCCGTGCTAG	-0.0123 z-score
TTAGATCTCAGACTGGATTAGTGCTAG	-0.156 z-score
GACGAGATCAGTTTCGAGACGTGCTAG	3.28 z-score
TTAGGTTCCGGTTTCGGTTGGTGCTAG	10.3 z-score
GACGGTATCGGGTATCGGGACGTGCTA	-0.0627 z-score
TCATAACTCATTCTCCAACTGTGCTAG	1.37 z-score
ATAGATATCAGTATCGATTAGTGCTAG	0.47 z-score
TTAGGTATCCTTTTCCTGTAGTGCTAG	1.45 z-score
GACGAACTGGTGTATCGAGACGTGCTA	0.0922 z-score
TTAGCTATCGACACTGGGTTAGTGCTA	0.0366 z-score
GTCGGTATCGGGTTTCGGGACGTGCTA	2.24 z-score
TCAGTTTTTATTTTCTGACTGTGCTAG	3.04 z-score
GACGGTTTCGTACTGGGGACGTGCTAG	3.73 z-score
GACGGACTGGACTTTCGCGACGTGCTA	0.593 z-score
TATGTTCACTATTTAAGACCGTGCTAG	0.901 z-score
TTAGGTTTCGGGTATCCGTTAGTGCTA	6.07 z-score
TCAGTTTCTGATATGGTACTGTGCTAG	3.1 z-score
TTAGGACTGGAGTATCGGTTAGTGCTA	-0.274 z-score
TCATGTCCCTATTTAAGACTGTGCTAG	1.52 z-score
GACAATTTCAGTATCGAGACGTGCTAG	0.789 z-score

Block 3 — technique: RNA Bind-n-Seq; form: RNA; matrix: in vitro; tested at: 20 nM; setting: 6-mer, flanks averaged, single round; together with: 150 mM KCl; reference: input library; reading: higher = stronger binding
Target: TAR DNA-binding protein 43, full length, His tag (TARDBP, Homo sapiens, UniProt Q13148, residues 1-414)
Strand	6-mer enrichment (R)
UACUAC	0.565
GUGAGU	1.56
UCUAGA	0.607
UUCUGC	0.592
GGAAGA	1.74
UGAGAA	0.904
GGAUCA	0.93
GCGCUC	0.791
UUCUAC	0.542
AGGAGC	1.44
UCUUUA	0.58
CACAUC	0.594
UCAGCG	0.974
CCGUGU	0.806
UCCAUU	0.572
GGGUAA	1.99
AAUUUU	0.709
GAAGAA	1.02
CCACGG	1.09

Block 4 — target: CCNF, cyclin fold, Cln2 fusion (human); technique: yeast growth competition, sequencing; matrix: yeast; setting: strong parent motif; reference: not given; reading: higher = stronger binding
Parent: CDKN1A docking peptide (human); SKACRRLFGPVDS
Change	normalised enrichment score
K2R	7.59
R6M	6.42
L7V	1.24
G9L	7.94
P10S	7.2
V11T	7.8
P10H	6.61
A3N	1.17
A3M	5.32
C4R	8.26
R5N	0.495
K2T	7.63
A3D	0.594
D12M	7.48
R5S	0.189
G9C	6.82
R6A	5.61
G9H	7.23
D12R	6.52
G9R	5.98

Block 5 — technique: RNA Bind-n-Seq; form: RNA; matrix: in vitro; tested at: 1 µM; setting: whole 134-nt RNA, ends assumed; together with: 150 mM KCl; reference: input library; reading: higher = stronger binding
Target: Ras GTPase-activating protein-binding protein 1, RRM domain (G3BP1, Homo sapiens, UniProt Q13283)
Sequence of UniProt Q13283 (whole entry, looked up): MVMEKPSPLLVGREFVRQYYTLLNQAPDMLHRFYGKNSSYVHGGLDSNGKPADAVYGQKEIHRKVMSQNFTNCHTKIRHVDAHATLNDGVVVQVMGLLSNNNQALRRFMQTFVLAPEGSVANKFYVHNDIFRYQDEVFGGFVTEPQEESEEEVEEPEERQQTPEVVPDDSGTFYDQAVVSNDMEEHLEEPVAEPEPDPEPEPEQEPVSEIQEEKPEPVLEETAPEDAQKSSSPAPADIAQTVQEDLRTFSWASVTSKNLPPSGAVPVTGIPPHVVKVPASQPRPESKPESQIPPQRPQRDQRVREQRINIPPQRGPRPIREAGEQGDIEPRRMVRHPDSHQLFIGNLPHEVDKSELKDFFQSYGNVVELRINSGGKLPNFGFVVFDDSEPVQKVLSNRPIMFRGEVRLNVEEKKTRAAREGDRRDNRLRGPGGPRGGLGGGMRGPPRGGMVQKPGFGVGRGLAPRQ
Strand	log2 enrichment
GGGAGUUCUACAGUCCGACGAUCUAACUUUAGAGGAGGAUGUGAUGGAUAUGGCAGUGGACGUGGAUUUGGGGAUGGCUAUAAUGGGUAUGGAGGAGGACCUGGAGGUGGCAAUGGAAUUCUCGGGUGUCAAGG	-0.738
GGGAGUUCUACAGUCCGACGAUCUUCCUCAAGUCCUGUGCUACACAUCGUAUGUACCGAAUCGGAGGGAGGAGGAAAGUAUUAUGUUACGCCGUUCGGAUCUGCACUUCCAGCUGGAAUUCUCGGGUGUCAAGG	-0.259
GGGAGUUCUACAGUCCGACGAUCGCAGGAAGUAAAAACAAAUGGAAAUGCUUCGGUUAGUGGCAGGGGUGGGGGUUGCUAAGGAAAGGGUGGGAUGGGAGUGGGUAAAGAGUUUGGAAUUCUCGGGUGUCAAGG	1.08
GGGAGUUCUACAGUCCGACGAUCGUCCUGUGCUACACAUCGUAUGUACCGAAUCGGGGCCCCCGGGCCCCCGGGCCCCCGGGAAAGUAUUAUGUUACGCCGUUCGGAUCUGCAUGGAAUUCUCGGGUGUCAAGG	-0.584
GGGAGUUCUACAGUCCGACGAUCCUGUGCUACACAUCGUAUGUACCGAAUCGGGGAAAAAGGGGUUUUUUUGGGGAAAAAGGGGAAAGUAUUAUGUUACGCCGUUCGGAUCUGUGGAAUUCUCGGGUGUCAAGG	0.824
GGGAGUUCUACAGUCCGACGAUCUCCUGUGCUACACAUCGUAUGUACCGAAUCGGGGUUUUUUUGGGGUGGGGAAAAAGGGGAAAGUAUUAUGUUACGCCGUUCGGAUCUGCAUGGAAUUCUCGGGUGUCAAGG	0.566
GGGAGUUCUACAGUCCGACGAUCGCAGGAAGUAAAAACAAAUGGAAAUGCUUCGGAUAGUGGCAGGGGUGGGGGUUGCUAAGGAAAGGGUGGGAUGGGAGUGAAAAAAGAGUUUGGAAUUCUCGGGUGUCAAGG	1.1
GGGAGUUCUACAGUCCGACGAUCUGUGAGCUGACUUUUUGGAUCAACUUUACUUUUCCCUUCUUUUUAGGCAAUUGAAGAUGAAGGUGGUAAUCCUGACGAAAUUGAAAUUACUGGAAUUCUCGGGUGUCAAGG	-0.0721
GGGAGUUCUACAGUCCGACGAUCUCAAGUCCUGUGCUACACAUCGUAUGUACCGAAUCGGAAAGGAAAGGAAAGGGGAAAGUAUUAUGUUACGCCGUUCGGAUCUGCACUUCCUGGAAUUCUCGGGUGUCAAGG	-0.202
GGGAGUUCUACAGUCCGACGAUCCAAGUCCUGUGCUACACAUCGUAUGUACCGAAUCGGAAAAAGGUUUUUUUGGAGGAAAGUAUUAUGUUACGCCGUUCGGAUCUGCACUUCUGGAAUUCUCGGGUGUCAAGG	-0.379
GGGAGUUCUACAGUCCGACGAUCUUCCCCACUUCCUUCCCUCCAGUCCCCACUCACUCACAUGCACACACUAACCUUGGAGCCGAUGGGAUUGAGUGACUGGCACUUGGGACCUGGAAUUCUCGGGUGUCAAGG	0.523
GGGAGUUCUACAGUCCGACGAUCCAAGUCCUGUGCUACACAUCGUAUGUACCGAAUCGGGCCCCGGCCCCGGCCCCGGAAAGUAUUAUGUUACGCCGUUCGGAUCUGCACUUCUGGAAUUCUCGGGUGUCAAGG	-1.4
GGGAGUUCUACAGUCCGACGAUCAGUCCUGUGCUACACAUCGUAUGUACCGAAUCGGGGUGGGGAAAGGGGUUUUUGGGGAAAGUAUUAUGUUACGCCGUUCGGAUCUGCACUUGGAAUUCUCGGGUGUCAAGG	1.17
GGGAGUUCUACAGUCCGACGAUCCUGUGCUACACAUCGUAUGUACCGAAUCGGAAAAAAAGGGGAAAAAAAGGGGAAAAAAAGGAAAGUAUUAUGUUACGCCGUUCGGAUCUGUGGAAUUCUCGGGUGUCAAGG	0.042

Block 6 — technique: universal PBM; form: double-stranded DNA, one strand shown; matrix: in vitro; tested at: 600 nM; reading: higher = stronger binding
Target: Sal-like protein 4, full length isoform A (SALL4, Homo sapiens, UniProt Q9UJQ4, residues 1-1053)
Sequence of UniProt Q9UJQ4 (whole entry, looked up): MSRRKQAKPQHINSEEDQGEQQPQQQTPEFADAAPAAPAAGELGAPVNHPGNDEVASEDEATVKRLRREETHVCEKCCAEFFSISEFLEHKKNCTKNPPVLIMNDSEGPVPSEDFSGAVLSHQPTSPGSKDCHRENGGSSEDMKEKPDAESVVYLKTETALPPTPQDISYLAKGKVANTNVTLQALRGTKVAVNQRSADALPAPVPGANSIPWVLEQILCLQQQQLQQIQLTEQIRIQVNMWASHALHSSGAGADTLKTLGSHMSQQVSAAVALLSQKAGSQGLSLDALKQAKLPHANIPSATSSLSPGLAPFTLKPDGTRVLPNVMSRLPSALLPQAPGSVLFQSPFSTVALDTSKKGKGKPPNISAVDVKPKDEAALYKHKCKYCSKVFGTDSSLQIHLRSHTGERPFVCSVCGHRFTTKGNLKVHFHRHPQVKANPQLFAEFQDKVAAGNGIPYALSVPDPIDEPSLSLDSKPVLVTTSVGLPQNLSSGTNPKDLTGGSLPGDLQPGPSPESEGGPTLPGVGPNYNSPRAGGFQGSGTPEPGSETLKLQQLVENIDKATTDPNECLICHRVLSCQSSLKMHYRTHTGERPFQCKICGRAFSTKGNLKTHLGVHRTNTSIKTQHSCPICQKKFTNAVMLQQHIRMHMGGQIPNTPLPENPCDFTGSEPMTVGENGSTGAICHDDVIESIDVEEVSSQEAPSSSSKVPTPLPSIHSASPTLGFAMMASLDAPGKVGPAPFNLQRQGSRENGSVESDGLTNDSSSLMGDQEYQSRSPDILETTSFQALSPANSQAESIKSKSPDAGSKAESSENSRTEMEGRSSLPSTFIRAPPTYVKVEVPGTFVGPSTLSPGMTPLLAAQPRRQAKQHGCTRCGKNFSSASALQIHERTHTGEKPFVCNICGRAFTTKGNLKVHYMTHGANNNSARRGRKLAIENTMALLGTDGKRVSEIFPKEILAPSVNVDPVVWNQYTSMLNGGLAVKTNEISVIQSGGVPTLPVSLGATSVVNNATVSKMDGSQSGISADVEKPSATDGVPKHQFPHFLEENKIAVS
Setting: 8-mer, flanks averaged, mean of replicates
Strand	E-score
ACTATAGG	0.184
AATTACCC	0.0736
ACGGAGAC	-0.0569
AAGCCCTG	-0.238
GGACATAC	-0.00628
ATCTTCTG	0.0394
ATGAGACC	-0.105
CCCTAAAG	-0.174
ATCCTCAC	0.011
ACGATGCA	0.0415
GAGGTGGC	-0.168
CGGAATTA	0.167
AAGCAGGG	-0.15
GGTGTTTA	-0.0184
ATGGCAGG	-0.0543
CTCGAGCA	-0.0693
ACAGGGAA	-0.133

Further values, each from its own experiment
Molecule	target	test	system	conditions	scale	endpoint	value
PhoQ, residues 284 288 289 292 302 303 SSTLSG	PhoP, residues 12 14 15 18 19 LWHCS (Escherichia coli, UniProt P23836)	Sort-seq, measured: YFP reporter	E. coli	PhoQ-PhoP variant library, together with: 10 µM Mg2+	reference: high Mg2+ state, higher = stronger signaling	fold induction	14.2

A few entries again (block 5):
Strand	log2 enrichment
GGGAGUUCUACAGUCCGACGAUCUUCCUCAAGUCCUGUGCUACACAUCGUAUGUACCGAAUCGGAGGGAGGAGGAAAGUAUUAUGUUACGCCGUUCGGAUCUGCACUUCCAGCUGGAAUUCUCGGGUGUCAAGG	-0.259
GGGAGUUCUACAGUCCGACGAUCGCAGGAAGUAAAAACAAAUGGAAAUGCUUCGGUUAGUGGCAGGGGUGGGGGUUGCUAAGGAAAGGGUGGGAUGGGAGUGGGUAAAGAGUUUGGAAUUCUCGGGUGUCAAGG	1.08
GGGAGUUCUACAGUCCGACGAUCGUCCUGUGCUACACAUCGUAUGUACCGAAUCGGGGCCCCCGGGCCCCCGGGCCCCCGGGAAAGUAUUAUGUUACGCCGUUCGGAUCUGCAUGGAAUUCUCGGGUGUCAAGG	-0.584
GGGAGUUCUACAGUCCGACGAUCCUGUGCUACACAUCGUAUGUACCGAAUCGGGGAAAAAGGGGUUUUUUUGGGGAAAAAGGGGAAAGUAUUAUGUUACGCCGUUCGGAUCUGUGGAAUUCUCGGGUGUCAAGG	0.824
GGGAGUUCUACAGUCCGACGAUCUCCUGUGCUACACAUCGUAUGUACCGAAUCGGGGUUUUUUUGGGGUGGGGAAAAAGGGGAAAGUAUUAUGUUACGCCGUUCGGAUCUGCAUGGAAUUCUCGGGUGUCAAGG	0.566
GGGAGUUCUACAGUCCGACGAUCGCAGGAAGUAAAAACAAAUGGAAAUGCUUCGGAUAGUGGCAGGGGUGGGGGUUGCUAAGGAAAGGGUGGGAUGGGAGUGAAAAAAGAGUUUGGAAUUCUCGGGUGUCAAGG	1.1
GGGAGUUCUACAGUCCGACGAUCUGUGAGCUGACUUUUUGGAUCAACUUUACUUUUCCCUUCUUUUUAGGCAAUUGAAGAUGAAGGUGGUAAUCCUGACGAAAUUGAAAUUACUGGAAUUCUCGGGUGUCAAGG	-0.0721
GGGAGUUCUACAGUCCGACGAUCUCAAGUCCUGUGCUACACAUCGUAUGUACCGAAUCGGAAAGGAAAGGAAAGGGGAAAGUAUUAUGUUACGCCGUUCGGAUCUGCACUUCCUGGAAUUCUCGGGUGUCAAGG	-0.202
